Measured values pooled from the literature.
Protocols differ between the studies behind these lines. Numbers after ± are the reported error.

| SMILES | assay | system | conditions | tissue uptake [%ID/g] |
| --- | --- | --- | --- | --- |
| CCCC[C@H](NC(=O)CNC(=O)CNC(=O)CN1CCN(CC(=O)O)CCN(CC(=O)O)CCN(CC(=O)O)CC1)C(=O)N[C@H]1CC(=O)NCCCC[C@@H](C(N)=O)NC(=O)[C@H](Cc2c[nH]c3ccccc23)NC(=O)[C@H](CCCNC(=N)N)NC(=O)[C@@H](Cc2ccccc2)NC(=O)[C@H](Cc2c[nH]cn2)NC1=O [gallium-67 labelled] | – | female C57 mice, B16/F1 melanoma, spleen | intravenous, 0.037 MBq, 24 h | 0.52 ± 0.16 |
| NC12CNCCNCC(NCc3ccc(CNC(=O)CCCC(=O)NCc4ccc(-c5nncnn5)cc4)cc3)(CNCCNC1)CNCCNC2.[64Cu+2] | – | athymic nude mice, SW1222 xenograft, heart | 24 h post-injection, 24 h pretargeting interval, added: huA33-TCO pretargeting | 0.81 ± 0.04 |
| CCCC[C@@H]1NC(=O)[C@@H](NC(=O)[C@H](CCC(=O)O)NC(=O)CNC(=O)CN2CCN(CC(=O)O)CCN(CC(=O)O)CCN(CC(=O)O)CC2)CCCCNC(=O)C[C@@H](C(N)=O)NC(=O)[C@H](C(C)C)NC(=O)[C@@H]2CCCN2C(=O)[C@H](CCCNC(=N)N)NC(=O)CNC(=O)[C@H](Cc2c[nH]c3ccccc23)NC(=O)[C@H](CCCNC(=N)N)NC(=O)[C@@H](Cc2ccccc2)NC(=O)[C@H](Cc2c[nH]cn2)NC(=O)[C@H](CCC(=O)O)NC1=O [gallium-67 labelled] | – | C57 mice with B16/F1 melanoma, brain | intravenous, 0.5 h | 0.1 ± 0.03 |
| O=C([O-])CN1CCN(CC(=O)[O-])CCN(CC(=O)NCCc2ccc3c(c2)C2C=CCC2C(c2cc4c(cc2Br)OCO4)N3)CCN(CC(=O)[O-])CC1.[111In+3] (stereo not drawn) | – | mice with Hec50 tumour xenograft, muscle | 2 h, added: G-1 5 µg blocking | 0.15 ± 0.03 |
| O=C([O-])c1cccc(CN(CCN(Cc2cn(Cc3ccccc3)nn2)Cc2cccc(C(=O)[O-])n2)Cc2cn(Cc3ccccc3)nn2)n1.[64Cu+2] | – | healthy athymic nude mice, kidney | intravenous, 4 h | 6.98 |
| CN1C(=O)[C@@H](Cc2ccc(O)c(I)c2)NC(=O)CNC(=O)[C@H](Cc2ccc3ccccc3c2)NC(=O)[C@H](CCCNC(=N)N)NC(=O)[C@H]1CCCNC(=O)c1ccc(CNC(=O)CN2CCN(CC(=O)O)CCN(CC(=O)O)CCN(CC(=O)O)CC2)cc1 [lutetium-177 labelled] | item: 177Lu radioactivity | female CB-17 SCID mice, Daudi xenograft, heart | intravenous, 0.16 nmol per mouse, 48 h | 0.11 ± 0.01 |
| CCCC[C@H](NC(=O)CNC(=O)CNC(=O)CN1CCN(CC(=O)O)CCN(CC(=O)O)CC1)C(=O)N[C@H]1CC(=O)NCCCC[C@@H](C(N)=O)NC(=O)[C@H](Cc2c[nH]c3ccccc23)NC(=O)[C@H](CCCNC(=N)N)NC(=O)[C@@H](Cc2ccccc2)NC(=O)[C@H](Cc2c[nH]cn2)NC1=O [gallium-67 labelled] | – | female C57 mice, B16/F1 melanoma, lung | intravenous, 0.037 MBq, 4 h | 0.3 ± 0.1 |
| CC(C)[C@H](NC(=O)[C@@H]1CCCN1C(=O)[C@H](CCCNC(=N)N)NC(=O)[C@H](CS)NC(=O)[C@H](Cc1c[nH]c2ccccc12)NC(=O)[C@H](CCCNC(=N)N)NC(=O)[C@@H](Cc1ccccc1)NC(=O)[C@H](Cc1c[nH]cn1)NC(=O)[C@H](CCC(=O)O)NC(=O)[C@H](CS)NC(=O)[C@H](CS)NC(=O)CNC(=O)[C@@H]1CC(=O)N[C@@H](CCCNC(=N)N)C(=O)NCC(=O)N[C@@H](CC(=O)O)C(=O)N[C@H](Cc2ccc(O)cc2)C(=O)N1)C(N)=O [technetium-99m labelled] | – | C57 mice B16/F1 melanoma female, blood | iv, 2 h, added: NDP-MSH 10 µg co-injected | 0.44 ± 0.27 |
| O=C([O-])CN1CCN(CC(=O)[O-])CCN(CC(=O)[O-])CCN(CC(=O)[O-])CC1.[64Cu+2] | – | healthy athymic nude mice, spleen | intravenous, 4 h | 0.69 |

Excerpt of the above:
| SMILES | assay | system | conditions | tissue uptake [%ID/g] |
| --- | --- | --- | --- | --- |
| NC12CNCCNCC(NCc3ccc(CNC(=O)CCCC(=O)NCc4ccc(-c5nncnn5)cc4)cc3)(CNCCNC1)CNCCNC2.[64Cu+2] | – | athymic nude mice, SW1222 xenograft, heart | 24 h post-injection, 24 h pretargeting interval, added: huA33-TCO pretargeting | 0.81 ± 0.04 |
